Assay results collected from several papers.
Target: Interleukin-1 receptor-associated kinase 4 (IRAK4, Homo sapiens, UniProt Q9NWZ3)
Chain of UniProt Q9NWZ3 (whole entry, looked up): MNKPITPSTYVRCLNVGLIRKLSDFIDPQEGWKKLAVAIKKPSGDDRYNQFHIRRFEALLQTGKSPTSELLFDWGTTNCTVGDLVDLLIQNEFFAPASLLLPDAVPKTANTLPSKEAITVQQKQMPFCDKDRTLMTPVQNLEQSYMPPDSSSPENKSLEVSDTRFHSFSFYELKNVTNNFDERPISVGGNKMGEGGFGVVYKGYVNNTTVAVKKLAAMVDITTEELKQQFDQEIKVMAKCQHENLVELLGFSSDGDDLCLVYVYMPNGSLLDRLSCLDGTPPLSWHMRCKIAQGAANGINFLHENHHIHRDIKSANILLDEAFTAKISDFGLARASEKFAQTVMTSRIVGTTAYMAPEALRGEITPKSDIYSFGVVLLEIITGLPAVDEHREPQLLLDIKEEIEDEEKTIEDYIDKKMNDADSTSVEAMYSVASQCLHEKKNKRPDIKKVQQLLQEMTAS

SMILES = C1=C/COCc2cc(ccc2OCCN2CCCC2)Nc2nccc(n2)-c2cccc(c2)COC/1; setting = concentration not given; measurement = percent of control; value = 56%
SMILES = C=CC(=O)N1CCC(C(=O)NCC(=O)N2CCN(c3nc(-c4cnc(N)nc4C(F)F)nc(N4CCOCC4)n3)CC2)CC1; assay = KINOMEscan; setting = 1 µM; measurement = remaining binding; value = 95%
SMILES = C[C@@H](c1ccc(-n2cnc3c(N)ncnc32)cc1)N1CCc2nn(C)c(Cc3ccccc3)c2C1=O; assay = KINOMEscan; setting = 0.1 µM; how to read = reference: DMSO control; measurement = remaining binding; value = 73%
SMILES = O=C(NC1CCC1)c1ccc2nc(-c3cccc(NS(=O)(=O)NCCN4CCCCC4)c3)cn2c1; assay = enzyme activity; setting = 10 µM; measurement = remaining activity; value = 76%
SMILES = C=CC(=O)N1CCC(COCC(=O)N2CCN(c3nc(-c4cnc(N)nc4C(F)F)nc(N4CCOC[C@@H]4C)n3)CC2)CC1; assay = KINOMEscan; setting = 1 µM; how to read = reference: DMSO control; measurement = remaining binding; value = 84%
SMILES = CCN(CC)c1ccc(C2=NNC(=O)CC2C)cc1[N+](=O)[O-] (stereo not shown); assay = enzyme activity, inhibitor; setting = 10 µM; how to read = reference: vehicle; measurement = remaining activity; value = 95%
SMILES = COc1cc(F)ccc1-c1ncnc(Nc2cccc(C[S@](C)(=N)=O)c2)n1; assay = kinase activity; setting = 10 µM, with: 10 µM ATP; measurement = remaining activity; value = 53%
SMILES = O=C1NC(=O)/C(=C/c2ccc(-c3ccc(F)cc3O)o2)S1; assay = enzyme activity; setting = 10 µM; measurement = remaining activity; value = 114%
SMILES = Cc1cc(Nc2cc(N3CCN(C)CC3)nc(Sc3ccc(NC(=O)C4CC4)cc3)n2)[nH]n1; assay = kinase activity, KinaseProfiler; setting = 0.03 µM, species human; how to read = reference: control; measurement = remaining activity; value = 101%
SMILES = CCCOc1ccc(OC)c(F)c1C(=O)c1ccc(C(=O)N[C@@H]2CNC[C@H]2NC(=O)c2ccc3[nH]ncc3c2)cc1; assay = enzyme activity; setting = 10 µM; measurement = remaining activity; value = 88%
